Measured values from different studies.
Parts stem from different laboratories: compare values within a part only.
Sequence of UniProt P32298 (whole entry, looked up): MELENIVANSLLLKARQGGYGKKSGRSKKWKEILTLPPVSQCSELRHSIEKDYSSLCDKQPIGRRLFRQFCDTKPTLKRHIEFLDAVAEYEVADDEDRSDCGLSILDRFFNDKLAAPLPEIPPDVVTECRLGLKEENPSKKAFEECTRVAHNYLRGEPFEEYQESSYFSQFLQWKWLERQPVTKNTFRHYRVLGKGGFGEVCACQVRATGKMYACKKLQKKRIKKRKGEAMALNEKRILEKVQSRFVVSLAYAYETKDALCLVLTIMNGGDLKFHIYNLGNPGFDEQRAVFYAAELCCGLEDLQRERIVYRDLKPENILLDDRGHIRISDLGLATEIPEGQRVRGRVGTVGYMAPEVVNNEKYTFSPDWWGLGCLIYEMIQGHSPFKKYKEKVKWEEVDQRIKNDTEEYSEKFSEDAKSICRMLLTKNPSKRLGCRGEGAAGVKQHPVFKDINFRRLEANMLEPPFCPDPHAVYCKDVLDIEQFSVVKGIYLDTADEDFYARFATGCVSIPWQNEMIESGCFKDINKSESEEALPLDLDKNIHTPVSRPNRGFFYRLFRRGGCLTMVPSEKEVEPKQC
Sequence of UniProt P51956 (whole entry, looked up): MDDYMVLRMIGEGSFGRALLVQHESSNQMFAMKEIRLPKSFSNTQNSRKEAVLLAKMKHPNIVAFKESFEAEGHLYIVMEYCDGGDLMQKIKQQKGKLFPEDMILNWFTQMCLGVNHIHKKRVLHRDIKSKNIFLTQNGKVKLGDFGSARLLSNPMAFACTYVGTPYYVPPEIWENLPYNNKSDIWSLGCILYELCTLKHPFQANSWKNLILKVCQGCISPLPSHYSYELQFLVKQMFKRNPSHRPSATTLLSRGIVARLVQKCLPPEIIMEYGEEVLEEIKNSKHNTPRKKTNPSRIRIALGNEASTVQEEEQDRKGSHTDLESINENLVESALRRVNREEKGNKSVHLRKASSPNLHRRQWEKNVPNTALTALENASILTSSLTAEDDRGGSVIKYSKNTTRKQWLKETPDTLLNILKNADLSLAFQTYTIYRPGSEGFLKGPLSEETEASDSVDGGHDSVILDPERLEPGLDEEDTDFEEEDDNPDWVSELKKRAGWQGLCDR
Sequence of UniProt P06493 (whole entry, looked up): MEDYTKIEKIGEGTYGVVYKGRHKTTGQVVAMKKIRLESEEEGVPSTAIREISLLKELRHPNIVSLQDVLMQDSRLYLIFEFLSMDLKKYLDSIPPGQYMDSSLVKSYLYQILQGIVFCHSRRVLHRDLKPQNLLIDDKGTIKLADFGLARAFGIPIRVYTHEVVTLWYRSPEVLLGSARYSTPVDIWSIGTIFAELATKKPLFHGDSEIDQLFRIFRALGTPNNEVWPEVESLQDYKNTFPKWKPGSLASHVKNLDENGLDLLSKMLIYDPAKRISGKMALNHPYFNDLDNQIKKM
Sequence of UniProt P07948 (whole entry, looked up): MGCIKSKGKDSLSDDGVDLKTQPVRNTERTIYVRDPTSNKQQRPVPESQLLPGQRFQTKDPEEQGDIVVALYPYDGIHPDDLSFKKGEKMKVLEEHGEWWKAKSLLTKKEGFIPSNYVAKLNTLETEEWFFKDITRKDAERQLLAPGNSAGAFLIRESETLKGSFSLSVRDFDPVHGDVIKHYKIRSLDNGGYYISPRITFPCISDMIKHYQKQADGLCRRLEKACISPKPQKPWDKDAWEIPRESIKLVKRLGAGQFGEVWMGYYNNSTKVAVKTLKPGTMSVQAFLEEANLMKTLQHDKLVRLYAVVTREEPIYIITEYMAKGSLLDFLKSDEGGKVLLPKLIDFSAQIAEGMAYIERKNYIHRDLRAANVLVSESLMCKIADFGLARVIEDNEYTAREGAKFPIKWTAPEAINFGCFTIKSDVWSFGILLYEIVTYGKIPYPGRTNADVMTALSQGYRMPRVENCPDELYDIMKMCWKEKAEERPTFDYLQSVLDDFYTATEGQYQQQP
Sequence of UniProt Q9UL54 (whole entry, looked up): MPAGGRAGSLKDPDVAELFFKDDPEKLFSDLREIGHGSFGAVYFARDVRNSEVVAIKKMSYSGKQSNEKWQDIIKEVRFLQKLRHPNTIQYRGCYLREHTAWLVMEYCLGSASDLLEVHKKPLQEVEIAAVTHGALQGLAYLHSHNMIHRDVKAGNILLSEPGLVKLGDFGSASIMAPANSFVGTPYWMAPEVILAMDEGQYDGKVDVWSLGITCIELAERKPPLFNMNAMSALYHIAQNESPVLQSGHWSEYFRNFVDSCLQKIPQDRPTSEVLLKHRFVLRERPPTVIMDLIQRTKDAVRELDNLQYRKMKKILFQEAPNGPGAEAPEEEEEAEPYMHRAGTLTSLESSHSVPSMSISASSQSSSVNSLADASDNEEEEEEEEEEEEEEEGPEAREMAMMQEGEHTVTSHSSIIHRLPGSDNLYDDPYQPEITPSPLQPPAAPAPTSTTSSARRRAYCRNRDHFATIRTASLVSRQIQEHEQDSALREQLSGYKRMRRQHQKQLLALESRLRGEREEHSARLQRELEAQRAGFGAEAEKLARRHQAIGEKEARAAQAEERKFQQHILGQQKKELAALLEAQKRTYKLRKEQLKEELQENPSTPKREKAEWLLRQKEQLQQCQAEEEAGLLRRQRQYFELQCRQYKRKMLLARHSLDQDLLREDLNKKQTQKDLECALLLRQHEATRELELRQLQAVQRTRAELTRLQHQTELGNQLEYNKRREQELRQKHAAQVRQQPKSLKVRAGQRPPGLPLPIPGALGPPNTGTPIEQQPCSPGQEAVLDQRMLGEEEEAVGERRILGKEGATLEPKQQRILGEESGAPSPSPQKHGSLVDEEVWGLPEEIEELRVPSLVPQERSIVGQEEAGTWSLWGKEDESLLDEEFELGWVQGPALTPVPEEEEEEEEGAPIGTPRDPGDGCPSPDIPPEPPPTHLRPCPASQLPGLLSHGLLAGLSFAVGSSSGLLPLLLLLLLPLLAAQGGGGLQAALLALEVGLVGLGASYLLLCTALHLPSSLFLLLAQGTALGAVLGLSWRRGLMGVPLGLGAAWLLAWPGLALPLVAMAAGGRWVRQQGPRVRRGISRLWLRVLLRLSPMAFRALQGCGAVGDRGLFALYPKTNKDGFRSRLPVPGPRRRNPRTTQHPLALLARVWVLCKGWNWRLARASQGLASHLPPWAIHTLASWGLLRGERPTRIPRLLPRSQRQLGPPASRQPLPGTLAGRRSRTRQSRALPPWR
Sequence of UniProt Q13555 (whole entry, looked up): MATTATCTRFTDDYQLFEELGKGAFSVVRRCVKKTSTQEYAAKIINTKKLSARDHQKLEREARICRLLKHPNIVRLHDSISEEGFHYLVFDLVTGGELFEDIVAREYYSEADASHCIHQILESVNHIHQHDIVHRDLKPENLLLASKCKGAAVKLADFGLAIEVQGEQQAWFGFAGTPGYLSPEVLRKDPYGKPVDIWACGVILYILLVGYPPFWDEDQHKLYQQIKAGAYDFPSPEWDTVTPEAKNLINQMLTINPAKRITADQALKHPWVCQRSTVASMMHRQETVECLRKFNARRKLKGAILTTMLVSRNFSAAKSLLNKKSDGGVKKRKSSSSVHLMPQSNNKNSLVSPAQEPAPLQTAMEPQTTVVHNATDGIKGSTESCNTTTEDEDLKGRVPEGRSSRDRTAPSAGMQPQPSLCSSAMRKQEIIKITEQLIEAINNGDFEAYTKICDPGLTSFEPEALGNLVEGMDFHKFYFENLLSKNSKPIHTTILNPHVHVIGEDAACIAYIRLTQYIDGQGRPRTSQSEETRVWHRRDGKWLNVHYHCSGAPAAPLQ
Sequence of UniProt Q86Y07 (whole entry, looked up): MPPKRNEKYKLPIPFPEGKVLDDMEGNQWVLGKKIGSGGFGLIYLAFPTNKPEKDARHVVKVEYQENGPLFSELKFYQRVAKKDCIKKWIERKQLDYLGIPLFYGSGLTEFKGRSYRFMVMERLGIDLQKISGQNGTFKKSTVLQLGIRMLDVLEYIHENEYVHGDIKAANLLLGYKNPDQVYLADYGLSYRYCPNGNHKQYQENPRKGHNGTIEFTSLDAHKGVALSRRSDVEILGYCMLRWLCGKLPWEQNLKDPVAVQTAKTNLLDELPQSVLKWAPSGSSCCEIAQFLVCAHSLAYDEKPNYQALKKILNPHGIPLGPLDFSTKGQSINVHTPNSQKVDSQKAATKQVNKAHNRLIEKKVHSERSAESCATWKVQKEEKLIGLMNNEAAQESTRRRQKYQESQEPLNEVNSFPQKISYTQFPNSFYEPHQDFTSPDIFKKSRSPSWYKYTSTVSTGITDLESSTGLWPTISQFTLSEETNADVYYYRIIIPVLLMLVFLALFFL
Sequence of UniProt P50750 (whole entry, looked up): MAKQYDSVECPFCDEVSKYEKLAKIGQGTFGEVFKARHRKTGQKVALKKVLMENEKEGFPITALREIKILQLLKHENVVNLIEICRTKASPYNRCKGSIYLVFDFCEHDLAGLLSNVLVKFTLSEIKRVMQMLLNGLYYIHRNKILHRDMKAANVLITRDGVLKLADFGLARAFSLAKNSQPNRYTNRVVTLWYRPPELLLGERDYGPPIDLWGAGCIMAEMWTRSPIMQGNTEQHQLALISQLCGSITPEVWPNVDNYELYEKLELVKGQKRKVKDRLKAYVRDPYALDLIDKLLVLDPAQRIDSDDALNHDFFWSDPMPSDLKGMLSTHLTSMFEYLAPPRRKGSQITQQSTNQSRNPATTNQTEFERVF

Sample 1 — SMILES: O=C(Nc1ccccc1)Nc1cccc(Oc2ccc3nccn3n2)c1; concentration: 1 µM
target	technique	item	setting	reference	remaining binding [%]
Cyclin-dependent kinase 4 (CDK4, Homo sapiens, UniProt P11802)	competitive binding panel	–	–	vehicle	100
Receptor-type tyrosine-protein kinase FLT3 (FLT3, Homo sapiens, UniProt P36888)	competitive binding scan	–	autoinhibited form	–	100
Cyclin-dependent kinase 11B (CDK11B, Homo sapiens, UniProt P21127)	competitive binding panel	CDC2L1	–	vehicle	100
Serine/threonine-protein kinase TAO2 (TAOK2, Homo sapiens, UniProt Q9UL54)	competitive binding panel	–	–	vehicle	100
Serine/threonine-protein kinase VRK2 (VRK2, Homo sapiens, UniProt Q86Y07)	competitive binding panel	–	–	vehicle	100
Phosphatidylinositol 3-kinase C2 domain-containing subunit gamma (PIK3C2G, Homo sapiens, UniProt O75747)	competitive binding panel	–	–	vehicle	100
Phosphatidylinositol 5-phosphate 4-kinase type-2 beta (PIP4K2B, Homo sapiens, UniProt P78356)	competitive binding panel	PIP5K2B	–	vehicle	85
Calcium/calmodulin-dependent protein kinase type II subunit gamma (CAMK2G, Homo sapiens, UniProt Q13555)	competitive binding panel	–	–	vehicle	97
Tyrosine-protein kinase Lyn (LYN, Homo sapiens, UniProt P07948)	competitive binding panel	–	–	vehicle	100
Serine/threonine-protein kinase Sgk2 (SGK2, Homo sapiens, UniProt Q9HBY8)	competitive binding panel	–	–	vehicle	92
Mitogen-activated protein kinase kinase kinase kinase 3 (MAP4K3, Homo sapiens, UniProt Q8IVH8)	competitive binding panel	–	–	vehicle	91
Homeodomain-interacting protein kinase 2 (HIPK2, Homo sapiens, UniProt Q9H2X6)	competitive binding panel	–	–	vehicle	73
Serine/threonine-protein kinase/endoribonuclease IRE1 (ERN1, Homo sapiens, UniProt O75460)	competitive binding panel	–	–	vehicle	100

Sample 2 — read-out: ligand displacement; concentration: 10 µM
Target: Histamine H2 receptor (HRH2, Homo sapiens, UniProt P25021)
Sequence of UniProt P25021 (whole entry, looked up): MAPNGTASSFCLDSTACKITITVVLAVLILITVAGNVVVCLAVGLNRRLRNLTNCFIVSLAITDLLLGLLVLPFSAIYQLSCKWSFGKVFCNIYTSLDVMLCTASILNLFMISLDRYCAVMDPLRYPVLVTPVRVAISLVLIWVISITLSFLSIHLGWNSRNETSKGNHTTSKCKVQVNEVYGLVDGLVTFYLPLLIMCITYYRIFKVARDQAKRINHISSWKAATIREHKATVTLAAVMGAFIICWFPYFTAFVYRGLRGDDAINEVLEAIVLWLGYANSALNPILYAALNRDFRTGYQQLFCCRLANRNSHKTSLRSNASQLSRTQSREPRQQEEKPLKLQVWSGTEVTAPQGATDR
Compound	inhibition [%]
C[C@H](c1ccnc(Nc2nc3ccc(-c4cc(N(C)C)ncn4)cc3[nH]2)c1)N1CCN(C(=O)CC(F)(F)F)CC1	3.55
Cc1noc([C@H]2C[C@@H](c3ccc(C(F)(F)F)cc3)CN(C(=O)N3CCS(=O)(=O)C3)C2)n1	-11.8
Cc1ccc(-c2cnc([C@@]3(O)CC[C@H](C(=O)O)C(C)(C)C3)s2)cc1Nc1cccc(C(F)(F)F)n1	8.65
Cc1c(NC(=O)c2cc(C(N)=O)nc3cc(F)ccc23)c(C(F)(F)F)nn1Cc1ccc(C#N)cc1	30.4
CN1CCN(c2cnc3c(C4CCN(C(=O)c5ccc(OC(F)(F)F)cc5N)CC4)ncnc3c2)CC1	31.2
COc1cc(N[C@@H]2CCCC[C@]2(O)C(F)(F)F)ccc1F	89
COc1ccc2cc(OCC3(C(=O)O)CN(C(=O)c4ccc(F)cc4)C3)ccc2c1	3
CO[C@H]1CC[C@H](CNc2ccc(S(=O)(=O)NC(=O)c3ccc(N4CCN(CC5=C(c6ccc(Cl)cc6)CC(C)(C)CC5)CC4)cc3Oc3cnc4[nH]ccc4c3)cc2[N+](=O)[O-])CC1	13.6

Sample 3 — read-out: enzyme activity; action: inhibitor; concentration: 0.5 µM; reference: control
SMILES: NC(=O)c1cccc(-c2cc(Nc3ccc(OC(F)(F)F)cc3)ncn2)c1
target	remaining activity
RAC-beta serine/threonine-protein kinase (AKT2, Homo sapiens, UniProt P31751)	105%
Hepatocyte growth factor receptor (MET, Homo sapiens, UniProt P08581)	135%
Mitogen-activated protein kinase 11 (MAPK11, Homo sapiens, UniProt Q15759)	105%
G protein-coupled receptor kinase 4 (GRK4, Homo sapiens, UniProt P32298)	94.8%
Dual specificity mitogen-activated protein kinase kinase 1 (MAP2K1, Homo sapiens, UniProt Q02750)	95.5%
Cyclin-dependent kinase 9, with cyclin K (CDK9, Homo sapiens, UniProt P50750)	106%
Serine/threonine-protein kinase DCLK2 (DCLK2, Homo sapiens, UniProt Q8N568)	104%
Rho-associated protein kinase 1 (ROCK1, Homo sapiens, UniProt Q13464)	96.8%
Mitogen-activated protein kinase 14 (MAPK14, Homo sapiens, UniProt Q16539)	92%
Serine/threonine-protein kinase PLK3 (PLK3, Homo sapiens, UniProt Q9H4B4)	96.9%
Cyclin-dependent kinase 1, with cyclin A (CDK1, Homo sapiens, UniProt P06493)	103%
Serine/threonine-protein kinase Nek3 (NEK3, Homo sapiens, UniProt P51956)	121%
Serine/threonine-protein kinase PAK 3 (PAK3, Homo sapiens, UniProt O75914)	100%

Sample 4 — organism: Plasmodium berghei; action: inhibitor; cells: Huh-7; strain: GFP-expressing sporozoites, liver stage; concentration: 10 µM; time: 24 h; reference: untreated control
Structure (SMILES)	infection rate
C[C@H]1c2cccc(O)c2C(=O)C2=C(O)[C@]3(O)C(=O)C(C(N)=O)=C(O)[C@@H](N(C)C)[C@@H]3[C@@H](O)[C@@H]21	20%
CCCCOc1cc(C(=O)NCCN(CC)CC)c2ccccc2n1	70.5%
COc1cc(C(=O)NCCCCCC(=O)O)cc(OC)c1OC	85.9%
CC(CCc1ccc(O)cc1)NCCc1ccc(O)c(O)c1 (centres unmarked)	98.4%
O=C(O)CCC(=O)OC[C@@H](NC(=O)C(Cl)Cl)[C@H](O)c1ccc([N+](=O)[O-])cc1	94.6%
COCC1=C(C(=O)OC(C)OC(=O)OC(C)C)N2C(=O)[C@@H](NC(=O)/C(=N\OC)c3csc(N)n3)[C@H]2SC1 (some centres unmarked)	95.7%
O=C(CCCN1CCN(c2ccccn2)CC1)c1ccc(F)cc1	111%

Excerpt of the above (sample 1):
target	technique	item	setting	reference	remaining binding [%]
Cyclin-dependent kinase 4 (CDK4, Homo sapiens, UniProt P11802)	competitive binding panel	–	–	vehicle	100
Tyrosine-protein kinase Lyn (LYN, Homo sapiens, UniProt P07948)	competitive binding panel	–	–	vehicle	100
Serine/threonine-protein kinase/endoribonuclease IRE1 (ERN1, Homo sapiens, UniProt O75460)	competitive binding panel	–	–	vehicle	100
